Results pooled from the literature.
Parts stem from different laboratories: compare values within a part only.

Block 1
Target: Protein max, full length (MAX, Homo sapiens, UniProt P61244-2, residues 1-151)
Technique: protein-binding microarray
Form: double-stranded DNA, one strand shown
Matrix: in vitro
Concentration: not given
Notes: k-mer, scored over probes, only values ≥0.25
Direction: higher = stronger binding
The E-score of `ATGTGTTC` is reported as 0.298.
For `CAGGTGCG`, the E-score was 0.342.
With `GCATGGGC` the E-score was 0.421.
The E-score of `ACGCGCTG` is reported as 0.316.
The E-score of `GCCCCGCC` is reported as 0.265.
`ACGCATTG` has an E-score of 0.304.
`ACGTGCCC` has an E-score of 0.42.
The E-score of `GCAGGTGA` is reported as 0.286.
`ATGTGAGG` has an E-score of 0.287.
The E-score of `CATGATGG` is reported as 0.264.
`ATGTGGAA` gave an E-score of 0.282.
`GTGAGCAC` gave an E-score of 0.297.
`CGTGCGCC` gave an E-score of 0.417.
The E-score of `AGCATGGA` is reported as 0.418.
`CATGGGTC` gave an E-score of 0.313.
With `AGGCGGGG` the E-score was 0.276.
`CCCGCCGC` has an E-score of 0.268.
The E-score of `ACGTGGAC` is reported as 0.451.
`CACGGGTA` has an E-score of 0.337.
For `CAGACATG`, the E-score was 0.273.
The E-score of `CCACCCCA` is reported as 0.335.
`CATGGAAA` has an E-score of 0.267.
For `ACCACGTG`, the E-score was 0.498.
`ACATTGTG` gave an E-score of 0.278.
For `CCCGTGCG`, the E-score was 0.369.

Block 2
Target: RING finger protein unkempt homolog, zinc fingers 1-6, GST-SBP tag (UNK, Homo sapiens, UniProt Q9C0B0, residues 30-357)
Chain of UniProt Q9C0B0 (30-357, looked up): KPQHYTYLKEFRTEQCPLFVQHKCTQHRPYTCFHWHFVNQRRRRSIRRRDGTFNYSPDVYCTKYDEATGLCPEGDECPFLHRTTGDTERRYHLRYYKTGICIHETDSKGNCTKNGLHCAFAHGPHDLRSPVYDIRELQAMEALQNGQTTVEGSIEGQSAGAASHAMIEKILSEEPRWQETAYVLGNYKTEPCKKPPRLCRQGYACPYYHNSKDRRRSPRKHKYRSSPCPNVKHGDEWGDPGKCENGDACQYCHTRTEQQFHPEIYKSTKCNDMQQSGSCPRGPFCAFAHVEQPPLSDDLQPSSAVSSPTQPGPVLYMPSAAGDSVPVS
Technique: RNA Bind-n-Seq
Form: RNA
Matrix: in vitro
Concentration: not given
Notes: RNA with constant flanks, ends assumed
Relative to: input RNA pool
Direction: higher = stronger binding
For `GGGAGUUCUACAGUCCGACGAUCUUUUCAGUAAGACUUUCAGGCACUUCUUCCCUUUUGAUUUCUUUUUUUUCCUCUGUUUUUCCGCAUGCAAGUAUGUUGGUACGUUAUGUCCUGGUUUAAAAAGGAUUAAAAUUUUAAAAUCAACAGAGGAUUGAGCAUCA`, the bound/input enrichment was 1.04 ratio.
`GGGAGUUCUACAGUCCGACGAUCCCAACGCUCUGCUCCCUGGCAACCCCGAACACUUGGGAUGUCUCGCUGCUGUUUGCCUUCAUCCGUUUGCUCAUCAUGUUUCCCACGUGCUGGAUUGUGUCCUCCUGGCUGGUGUGGGGACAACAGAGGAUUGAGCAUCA` gave a bound/input enrichment of 0.28 ratio.
`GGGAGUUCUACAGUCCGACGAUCGAUGAGGGUCAGAAGCCUUACCUGGUACAGCGGAGAGGAGCUGAAUUUGCCUUAACAACUACCGUGAAGCAUUUUGGUGCUGAAAUGGCAGUGAAGUUGCCACAUCUUUGGGAUGCUAUGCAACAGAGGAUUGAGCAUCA` has a bound/input enrichment of 0.0763 ratio.
With `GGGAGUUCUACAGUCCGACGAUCCUCUUCCUCCCCACCCUGAAAAAAAUGAGUUCCUAUUUUUUCUGGGAGAGGGGGGGAUUGAUCCGAAAAAAAUGUAGUGUGUUCCAUUUAAAAUUUUGGCAUAUGGCAUUUUCUAACUUACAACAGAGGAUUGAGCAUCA` the bound/input enrichment was 0.201 ratio.
With `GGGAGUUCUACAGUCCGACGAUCUGGUGCCCAUGGCGGCCGCCCCGGAGCCCCACGAGACGGAGAAAAAGCCCUUCAAGCUCCCCGGUAUUUUAGAUGUUGAGAACACUCCAUGUGCUCGAGAAUCUAUACUCUAUGGCUCAUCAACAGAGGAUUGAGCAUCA` the bound/input enrichment was 0.129 ratio.
`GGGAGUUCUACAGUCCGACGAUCCAGUGGGACGGGGAGCAAAGCCCCAGAGGGGAGCGAAACAGGUGGAAGUACGAGGAAUUUUCCGAUCAUCCAGGCCAUAUCCACAGUAGUCCUUGUCAUGAAAGGCCCAACAAUGUCUCUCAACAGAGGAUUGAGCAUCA` gave a bound/input enrichment of 0.123 ratio.
`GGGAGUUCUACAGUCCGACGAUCUAUUACGUAUUGUAGAAGGCCAUUGUUAACAAGAGUCUCCUGCUAUGAACCUGUUUGCAUUUCCGAAUCAGAGAAACUUUUAAUUUAUAACCUUUUAAGAAUCGAGGUCUUCAGCUCUGACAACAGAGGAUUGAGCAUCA` gave a bound/input enrichment of 0.474 ratio.
`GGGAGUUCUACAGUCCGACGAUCUGGGUUACUCCUAUUAUUAUCAAGUAGCUGGAAUUGUGAAGGUCGGAGUAGUUAGAUCUUCCGCUUUUAUUCCUUAUUUUUUUGUAUUACUCUCCAUGUGUAUAAAUUAUUGAUCAUGUUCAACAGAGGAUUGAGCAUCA` gave a bound/input enrichment of 36.9 ratio.

Block 3
Target: Interferon regulatory factor 5, full length, phosphomimetic (IRF5, Homo sapiens, UniProt Q13568-2, residues 1-514, S451D/S453D/S456D/S462D)
Technique: protein-binding microarray
Form: double-stranded DNA, one strand shown
Matrix: in vitro
Concentration: 940 nM top
Notes: 60-bp whole probe
Added: salmon DNA 0.4 mg/ml
Relative to: random background probes
Direction: higher = stronger binding
Shared flanks, not repeated: GCCTAGCAC … GTCTTGATTCGCTTGACGCTGCTG
For `TACGAACTGAGTATCGAGACGTGCTAG`, “fitted relative affinity” read 1.7 z-score.
Under “fitted relative affinity”, `GACGGGCTGGGTTTCGGGACGTGCTAG` is recorded as 2.91 z-score.
`TTAGAACTGAGGACTGGATTAGTGCTA` — result for “fitted relative affinity”: -0.344 z-score.
Under “fitted relative affinity”, `GACGGACTAGACTTTCGGGACGTGCTA` is recorded as 0.101 z-score.
`TGGCACCTCTAGACTCTAAATGTGCTA` — result for “fitted relative affinity”: -0.284 z-score.
`ACGAGTTTCCATTTTCTGAAGTGCTAG`: “fitted relative affinity” 2.19 z-score.
`CACGGTATCGGTTTCGGGACGTGCTAG`: “fitted relative affinity” 9.29 z-score.
Under “fitted relative affinity”, `GACGGACTGGGTTTCGGGACGTGCTAG` is recorded as 2.42 z-score.
Under “fitted relative affinity”, `TTCGGTTTCGACTTTCGGTTAGTGCTA` is recorded as 9.17 z-score.
Under “fitted relative affinity”, `GACGGTATCCTTTTCCTGTCGTGCTAG` is recorded as 1.79 z-score.
`GACGGACTGGACACTGGGGCCGTGCTA` — result for “fitted relative affinity”: -0.601 z-score.
Under “fitted relative affinity”, `GACCGTATCGGTTTCGGGACGTGCTAG` is recorded as 7.26 z-score.
`GACGGTCTGCTTATCCTGACGTGCTAG` — result for “fitted relative affinity”: -0.345 z-score.
`GACGATATCGGGTATCTAGACGTGCTA` — result for “fitted relative affinity”: -0.293 z-score.
Under “fitted relative affinity”, `CATGAATCAGGCATAGCATGGTGCTAG` is recorded as -0.726 z-score.
Under “fitted relative affinity”, `GACGGACTGGGTCTCGGCACGTGCTAG` is recorded as -0.0922 z-score.
`TTAGGACTGGACATTGGGTTAGTGCTA`: “fitted relative affinity” -0.451 z-score.
`GACGAACTGAGTATAGAGACGTGCTAG`: “fitted relative affinity” -0.342 z-score.
`TCATTTTTTTAATTGAGACTGTGCTAG` — result for “fitted relative affinity”: 0.402 z-score.

Block 4
Target: RNA binding protein fox-1 homolog 2, RRM domain, GST-SBP tag (RBFOX2, Homo sapiens, UniProt O43251-10, residues 100-194)
Technique: RNA Bind-n-Seq
Form: RNA
Matrix: in vitro
Concentration: 365 nM
Notes: natural RNA segment, single round, ends assumed
Relative to: no-protein control
Direction: higher = stronger binding
Construct (chain): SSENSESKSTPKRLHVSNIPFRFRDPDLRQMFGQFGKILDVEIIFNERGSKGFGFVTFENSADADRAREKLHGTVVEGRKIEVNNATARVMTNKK
Under “RBNS enrichment (R)”, `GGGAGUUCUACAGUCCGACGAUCGAGAAAAAUUUGAACGAGGCUAGUGCAAUGUUUUGCUGAUAGAUUACAUUGUUAGGGAGCUGGUGAUUUUUUGCCAUGGUCGUAUCGUGGACAGCUUUUCCGUGGAAAUUUGGAAUUCUCGGGUGCCAA` is recorded as 0.474.
For `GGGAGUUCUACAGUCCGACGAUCAGGGAGCUACCCAGCUUCCUGUGGUACCAAGGAGUUAUUUUGGAUGAUUAGAAGCACAGAAUGAUCAGGCCUUUAGAGCGAUGGAAUGGCCAUUGUCAUAGCACAGAGAUUGGAAUUCUCGGGUGCCAA`, “RBNS enrichment (R)” read 1.09.
`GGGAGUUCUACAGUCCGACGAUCCAUAGAGGUACCACCACAAGGGAUGCCCUACUCUCUCGCAGCUCUUGAAAGCAUCUGUUUGAGGGAAAGGUCUCUGGGCAAGCAAGUGGUUAUUUGGAUUGCUUGCUUCCUGGAAUUCUCGGGUGCCAA`: “RBNS enrichment (R)” 0.353.
`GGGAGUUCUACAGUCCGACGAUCGUAAGGCAGAGCUGGGGUGCAGGUAGAAGUUGGGGACAGAGGAAGAUCUGGAAGUAAGCAAAUGUGAAAAUUCCUUUUGGAACCUGACAGAUGCAGCUAAACUAAACAGUUGGAAUUCUCGGGUGCCAA` — result for “RBNS enrichment (R)”: 0.662.
Under “RBNS enrichment (R)”, `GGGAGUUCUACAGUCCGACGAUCGCAGCUCACAGUACCAGCCAGCUUUAGACCUCCCAGUGCAAAGCCCAGCGCAGCACUAAGCCUUAAGCCACCCAAGGGCUGACACACCAUGCAGAGCUACGAAAUCUGUGUGGAAUUCUCGGGUGCCAA` is recorded as 0.449.
`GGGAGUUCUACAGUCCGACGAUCUUCUCUCCUCUUAUCAUCUAACAUACCCUACUUGGAAAGAUCUAAGAUCUCAAUCUUAUCCUUUGCCGCCUGCUAUCACCAUAUGGUGUUGGAUUCAAGUUUAAUUAGCUUGGAAUUCUCGGGUGCCAA` — result for “RBNS enrichment (R)”: 0.71.
`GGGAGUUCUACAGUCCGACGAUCCUUCCACAGUUGGAAAGUGGAACUACUUGUUGUUGAUAUCCCACAGCUAUCAGGUGCUAUGUAACUCCCUAGUGCUCUUACAUAGUUUUAUUUGCAGGACUAGAAUAAAAUGGAAUUCUCGGGUGCCAA` — result for “RBNS enrichment (R)”: 1.08.
`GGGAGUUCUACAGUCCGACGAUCUUCUCUCUGGUGACUUUUUGCUUUUGUGAUAUGGCAGCGGUGUGACAGUCCCAGGAGAGAAGUCAUUAAGGGGGAACAUUGCAAGCUAUCUUUUCGUGUUCUCAGUGUAUUGGAAUUCUCGGGUGCCAA`: “RBNS enrichment (R)” 0.99.

Block 5
Target: Sal-like protein 4, full length isoform B (SALL4, Homo sapiens, UniProt Q9UJQ4-2, residues 1-616)
Technique: universal PBM
Form: double-stranded DNA, one strand shown
Matrix: in vitro
Concentration: not given
Notes: 8-mer, flanks averaged, mean of replicates
Direction: higher = stronger binding
`AACGATGG` has an E-score of -0.068.
For `TCACTGGA`, the E-score was -0.00487.
`CGTGGTCA` gave an E-score of -0.309.
`GATTGATA` has an E-score of 0.266.
`CGCCTCGA` has an E-score of -0.161.
`GGGGCACA` gave an E-score of -0.117.
With `ATTTAATA` the E-score was 0.412.
`ATTGCGTA` has an E-score of 0.109.
For `GCCACAGC`, the E-score was -0.314.
`CGCCCACA` has an E-score of -0.0753.
With `GGCGTGAA` the E-score was -0.092.
For `GATGGTGA`, the E-score was -0.1.
With `AATGATGT` the E-score was 0.238.
With `ATACCCAT` the E-score was 0.197.
With `GGCCATGA` the E-score was -0.1.
`AACCATGA` gave an E-score of 0.111.
`CATACCAA` gave an E-score of 0.119.
`CCTAGATA` has an E-score of 0.161.
